Published values of several laboratories.
A part holds a random share of what one study measured. Substitutions count along the parent as printed.

Block 1 — target: CCNB3, cyclin fold, Cln2 fusion (human); method: yeast growth competition, sequencing; sample: yeast; notes: weak parent motif; reference: not given; reading: higher = stronger binding; measurement: normalised enrichment score
Starting sequence: E2F1 docking peptide (human); PPVKRRLDLETDH
PPVKRRLDLELDH [T11L]: 0.595
PPVKRLLDLETDH [R6L]: 0.336
PPVKRRLDLMTDH [E10M]: 0.225
PPVKRRLDLETDE [H13E]: 0.239
PPVKRRLDLEQDH [T11Q]: 0.282
PPVKRRLDLETDF [H13F]: 0.313
PPGKRRLDLETDH [V3G]: 0.0409
PPVKRRTDLETDH [L7T]: 0.466
PPVKRRLDLLTDH [E10L]: 0.413
PPVKRRKDLETDH [L7K]: -0.0371
NPVKRRLDLETDH [P1N]: 0.268
PPVKRRSDLETDH [L7S]: 0.553
MPVKRRLDLETDH [P1M]: 0.988
PPVKRRADLETDH [L7A]: -0.0419
PPVKRRLDLETPH [D12P]: 1.23
PPVKRRLWLETDH [D8W]: 0.267
PPVKRQLDLETDH [R6Q]: -0.202
PPVKRRLDLETDC [H13C]: 0.337
PPVKRVLDLETDH [R6V]: 0.586
PPVKRRLDLKTDH [E10K]: -0.00842
PPVKRRLDLGTDH [E10G]: 0.563
PPVKRRLQLETDH [D8Q]: 0.241
PPVKRRLDLSTDH [E10S]: 0.441
PPVKRRLDLEVDH [T11V]: 0.445
PPVCRRLDLETDH [K4C]: 0.413

Block 2 — target: ATF5, bZIP domain (human); method: DHFR protein complementation; sample: yeast; reference: wild-type JUN-FOS pair; reading: higher = stronger binding; measurement: binding fitness
Notes: single substitutions, most at no-binding floor
Starting sequence: JUN, bZIP domain (human); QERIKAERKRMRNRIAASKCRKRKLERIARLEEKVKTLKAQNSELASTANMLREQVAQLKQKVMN; partner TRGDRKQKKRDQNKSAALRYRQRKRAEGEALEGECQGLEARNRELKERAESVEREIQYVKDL
L59G: -1.51 natural log
S43A: -1.59 natural log
Q41W: -1.49 natural log
R53I: -1.42 natural log
A49G: -1.47 natural log
E33G: -1.4 natural log
K39A: -1.51 natural log
A49F: -1.48 natural log
K34E: -1.26 natural log
S43G: -1.4 natural log
L31N: -1.46 natural log
I28N: -1.45 natural log
N42C: -1.34 natural log
I28K: -1.3 natural log
V56E: -1.44 natural log
A29K: -1.52 natural log
Q55G: -1.36 natural log
V35T: -1.43 natural log

Block 3 — method: universal PBM; form: double-stranded DNA, one strand shown; sample: in vitro; tested at: not given; reading: higher = stronger binding; measurement: E-score
Target: Sal-like protein 4, full length isoform B (SALL4, Homo sapiens, UniProt Q9UJQ4-2, residues 1-616)
Notes: 8-mer, flanks averaged, mean of replicates
ACTAACTC: 0.0661
AGACCCCG: -0.181
CGTCCCAA: -0.117
GGTAACCA: -0.131
ACGTAAAA: 0.269
CCGTCCCC: -0.299
AGCTGACA: -0.0774
CCTCTGAC: -0.12
ACCATGGT: -0.0162
AGAACAAA: 0.282
GAATGAGA: -0.0138
AATCCAGG: -0.113
AAGGCACA: 0.0408
ACTGGACG: -0.152
ACGCTTCA: 0.0124
AGCTTGAG: -0.254
AAGGATCA: 0.00865
AACACGTC: -0.0241
AGTTGATA: 0.228
AAACAAAA: 0.215
ATCTCGAC: 0.0485
CAATGGCC: -0.19
GGTTTATA: 0.198

Block 4 — method: EMSA with sequencing; form: double-stranded DNA, one strand shown; sample: in vitro; tested at: 10 and 20 nM; reference: negative control set to 0; reading: higher = stronger binding; measurement: normalised bound fraction
Target: Hepatocyte nuclear factor 3-alpha (Foxa1, Mus musculus, UniProt P35582, residues 1-468, full length assumed)
Notes: whole designed probe, mean of two concentrations, ends assumed
Shared flanks, not repeated: GTGAGCGGTGCCCATTGATGGGGAAC … TTTCACTGGGATCGTGGGGAC
Construct (chain): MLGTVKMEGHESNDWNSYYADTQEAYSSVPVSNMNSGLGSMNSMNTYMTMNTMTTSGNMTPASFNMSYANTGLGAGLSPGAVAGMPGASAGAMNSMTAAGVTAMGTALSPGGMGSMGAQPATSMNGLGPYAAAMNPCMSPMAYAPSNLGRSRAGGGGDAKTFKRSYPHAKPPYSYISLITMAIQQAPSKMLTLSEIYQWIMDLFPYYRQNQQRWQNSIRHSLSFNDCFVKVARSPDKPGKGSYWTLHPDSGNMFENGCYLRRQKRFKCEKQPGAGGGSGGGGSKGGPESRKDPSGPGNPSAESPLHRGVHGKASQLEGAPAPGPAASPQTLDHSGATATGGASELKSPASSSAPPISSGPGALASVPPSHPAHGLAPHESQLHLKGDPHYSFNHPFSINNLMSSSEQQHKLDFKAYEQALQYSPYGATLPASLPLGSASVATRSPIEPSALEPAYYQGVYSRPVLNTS
CACTCGGCTCCCCAGAGGTCAGCGCACCCCAAGCCCAGAGGCCGGCTGGCCTCGGGAGCTCTCACTCCACTATCTTCCCTCCTCCCTGAACTCTGTTTACACAAGGCTGGTCTTGGCTCTGAGGCTGCTAGATTTTAAATGCAATCTCACTGGTGACTCACTGGTGCATCGTCATTTGGCTTTGCCTGGAATT: 0.482 ratio
ATCTTCCCCCTCTTCCTTGCCCCACCAGCTCACCTTCCCGGGTTATTTGCAGATAGGAAAATAAATAAAGCCGGCATTCGTTAACCCTCTTCACGCGCATACTGCTGTTTGCTCTGGATCTAACATGGGATGAATCATGCGCCAGGCTCCGGGAGAGCAAAGCACCGTGTCAGGGCCATGATCCGGGGTGGCC: 0.364 ratio
TGTGTAAGATTAGCTATCTAAACATGAATAGCATTCTGAAGTGAAGGGAAAAAATTGACTTAAAATTTTAAAAGCATTAATATCATTTCAAAGTAAACAACAGGTCCTTTTAAAACGATTAGAGGATTATTTGTGCATTATTTTATGGGTCAAAATTTAAGCTTTTAAAAGAATAAAGTGATTTTTAAAAGAA: 0.432 ratio
TCATAAGCATAAGGGTGAGTGACACTTTGCCCTCACCATCAAAACTGTTCAATTTGTGAAACGTGAATGCCCCATTCACATTGCTCATTTCATGTTTACTCTGGAGCATGTGTTCACTGAGTGAGCAGTATCCTTTTCAATTTATTTTTGGTGAAACACATAGTAGAATTAGTATAAATTAAATGCAAGTATA: 0.284 ratio
TTTAATTTTGCCCTATGTAAACTTGCTCAGCTGTAAACAAACAAGCCATCATGGAGACTAGATCAAATAATAAGCTCGTTGACTCCACGCTAGAGTAATCTAGGACATCAGAGTAAGTCATAGCCCTACAGATGTTAGACAAAAGGAAGGATTTTTACGTCTTTATTGATGTAAATTACATACTGTAGGAGTC: 0.394 ratio
TTATGATCTGAGTATATATAGTAAGTACCTCCCCTTTCAGGGTAAGGCAGTAGGTAATGGTGAAAAGGTGACTCAGGTACAGGGAAGCATGAGTAAACAACACCAAGCATATCTGACTCAAGGAATGCTTCAGAGGCCAGGGGTGCATGCCTGTAATCCCAGCACCTTGGAAGGCTGACACAGGAGGATCACT: 0.375 ratio
GCATAAGCATTGCCAAGCCCAGATCTAATGGATAGTCACTTCAAGGCTGCTCTGTGTGGAAGCCTTACTCTTGTTTTTTTCACCTGCCTATCCAGATGACCTATTTATTTTTATGTGAATGTCATTGTTTTATTCGCTTTAACAATATATTACATTTTGTGTCTGGTAATATAAGTCATTCTTTAATAATCTT: 0.0508 ratio
AATATTGCTTCCATACGTTCTGTTGCTTAAGTTCACCTCTGCCTCTAGGGCTCACACTTGTATTCCTTTTGCCTGGACTGCTTTTTCCCCAAAAAATTACACAGCTGGCTACTTGTTCTTGTCACTCAAACACACTTGAGTATCACTCTCAGAGATACTTTGTTGAGTTCCTCATCTAATACATCCACTACAT: -0.0406 ratio

Block 5 — method: DHFR PCA, deep sequencing; sample: yeast; with: (+)-ABA 0.11 µM; reference: wild-type fitted maximum; reading: higher = stronger binding; measurement: relative binding score
Target: ABI1, truncated, D143A, DHFR fusion (Arabidopsis thaliana)
Notes: methotrexate growth selection, single substitutions
Starting sequence: PYL1, truncated, DHFR fusion (Arabidopsis thaliana); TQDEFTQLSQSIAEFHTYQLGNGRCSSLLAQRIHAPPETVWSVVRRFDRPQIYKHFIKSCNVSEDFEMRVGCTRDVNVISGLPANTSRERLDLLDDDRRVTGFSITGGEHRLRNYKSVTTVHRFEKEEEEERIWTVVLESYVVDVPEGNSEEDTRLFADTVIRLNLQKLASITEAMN; partner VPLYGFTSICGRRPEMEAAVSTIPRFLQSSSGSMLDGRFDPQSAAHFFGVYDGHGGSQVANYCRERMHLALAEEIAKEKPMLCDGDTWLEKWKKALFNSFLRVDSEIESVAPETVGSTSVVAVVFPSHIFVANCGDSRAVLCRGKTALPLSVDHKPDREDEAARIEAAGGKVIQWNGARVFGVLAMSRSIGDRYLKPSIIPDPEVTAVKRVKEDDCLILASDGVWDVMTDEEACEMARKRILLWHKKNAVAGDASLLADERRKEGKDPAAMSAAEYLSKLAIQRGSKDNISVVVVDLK
V40P: -6.45%
Q10S: 45.2%
T17P: 2.02%
T160Y: 20.7%
T106C: 14.1%
Q2Y: 64.9%
K54D: 1.32%
C72Y: -2.37%
V70S: 7.89%
L91W: 3.82%
A170K: 62.7%
K126E: 38.9%
Y53W: 55.1%
Y115V: -7.47%
E128Y: 20.2%
E109S: 9.11%
G148F: -13.9%
L8A: 10.9%
E131M: 37.7%

For quick reference, copied from above (block 3):
CCGTCCCC: -0.299
AGCTGACA: -0.0774
CCTCTGAC: -0.12
ACCATGGT: -0.0162
AGAACAAA: 0.282
GAATGAGA: -0.0138
AATCCAGG: -0.113
AAGGCACA: 0.0408
ACTGGACG: -0.152
ACGCTTCA: 0.0124
AGCTTGAG: -0.254
